Experimental data collected from several papers.
Numbered parts are unrelated; each lists some results of a single study.

Study 1
Target: Centromere-binding protein 1, full length, His-tagged (CBF1, Saccharomyces cerevisiae, UniProt P17106, residues 1-351)
Chain of UniProt P17106 (whole entry, looked up): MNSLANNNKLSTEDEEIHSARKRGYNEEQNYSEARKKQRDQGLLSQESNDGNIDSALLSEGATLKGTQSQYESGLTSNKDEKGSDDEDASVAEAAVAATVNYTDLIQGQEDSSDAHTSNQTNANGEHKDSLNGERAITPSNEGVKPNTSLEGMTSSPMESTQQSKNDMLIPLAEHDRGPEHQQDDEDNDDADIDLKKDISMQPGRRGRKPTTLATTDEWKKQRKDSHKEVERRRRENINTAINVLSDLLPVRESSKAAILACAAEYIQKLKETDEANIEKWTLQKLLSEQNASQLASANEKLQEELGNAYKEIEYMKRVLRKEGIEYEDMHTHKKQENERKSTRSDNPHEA
Method: competition protein-binding microarray
Form: double-stranded DNA, one strand shown
Medium: in vitro
Tested at: 2 µM
Setting: whole 60-bp probe, lowest competitor level
Added: Pho4 competitor, 0.05 µM
Reading: higher = stronger binding
With `CACCAATTCCCAGAGCACATGATGCCTCCACGGAATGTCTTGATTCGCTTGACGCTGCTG` the fluorescence intensity was 347 a.u.
For `CATACCATCTTTAGCGACGTGTGGAAGACCCGATTCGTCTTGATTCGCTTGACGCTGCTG`, the fluorescence intensity was 64.7 a.u.
The fluorescence intensity of `CAACCGCGTCGGCCCAACCTGATCTTGCAATTAGCAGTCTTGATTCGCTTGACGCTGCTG` is reported as 55.1 a.u.
`CTTTTTAGGGACCGTCACGGGAAGCCTGTTGGAGACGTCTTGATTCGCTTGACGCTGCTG` gave a fluorescence intensity of 108 a.u.
`CTCAAACGAAGAAAGCACGTGAGGATTGAAGAAAAAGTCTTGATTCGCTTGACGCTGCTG` gave a fluorescence intensity of 1670 a.u.

Study 2
Target: Histone acetyltransferase KAT6A, winged helix 1, GST fusion (KAT6A, Homo sapiens, UniProt Q92794, residues 1-85)
Method: protein binding microarray
Form: double-stranded DNA, one strand shown
Medium: in vitro
Tested at: not given
Setting: 8-mer, flanks averaged, mean of 2 arrays, mostly near background
Relative to: not given
Reading: higher = stronger binding
Residues (chain): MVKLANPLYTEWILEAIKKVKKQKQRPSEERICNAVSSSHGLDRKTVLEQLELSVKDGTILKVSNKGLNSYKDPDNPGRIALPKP
`AAATTGCT` has an E-score of -0.14.
For `AGGATGTA`, the E-score was -0.188.
The E-score of `CTGGAAAG` is reported as -0.311.
For `TCCTACAA`, the E-score was -0.208.

Study 3
Target: TAR DNA-binding protein 43, full length, His tag (TARDBP, Homo sapiens, UniProt Q13148, residues 1-414)
Method: RNA Bind-n-Seq
Form: RNA
Medium: in vitro
Tested at: 20 nM
Setting: 6-mer, flanks averaged, single round
Added: 150 mM LiCl
Relative to: input library
Reading: higher = stronger binding
For `GCUUUA`, “6-mer enrichment (R)” read 0.98.
Under “6-mer enrichment (R)”, `CACAGA` is recorded as 0.821.
For `UGUCCU`, “6-mer enrichment (R)” read 0.994.
Under “6-mer enrichment (R)”, `GUCAAG` is recorded as 0.924.

Further values, each from its own experiment
`PhoQ, residues 284 288 289 292 302 303 TTCLQL` gave a fold induction of 9.92 (PhoP, residues 12 14 15 18 19 SEGLL (Escherichia coli, UniProt P23836); Sort-seq, measured: YFP reporter; E. coli; PhoQ-PhoP variant library, added: 10 µM Mg2+; relative to: high Mg2+ state, higher = stronger signaling).

For quick reference, copied from above (study 2):
For `TCCTACAA`, the E-score was -0.208.
